Measured values of several laboratories.
Compare with care: the assays were run in different laboratories. “And” joins repeats or separate records; there may be more than shown. ± marks the error that the study gave.
Cnr2: Cannabinoid receptor 2 (Cnr2, Mus musculus, UniProt P47936)
NPY2R: Neuropeptide Y receptor type 2 (NPY2R, Homo sapiens, UniProt P49146)
MC4R: Melanocortin receptor 4 (MC4R, Homo sapiens, UniProt P32245)
Oprk1: Kappa-type opioid receptor (Oprk1, Mus musculus, UniProt P33534)
PRSS1: Serine protease 1 (PRSS1, Bos taurus, UniProt P00760)
Urease: Urease (Canavalia ensiformis, UniProt P07374)

Cc1cc2c(cc1Cl)-c1c(c(C(=O)NCC34CC5CC(CC(C5)C3)C4)nn1-c1ccc(Cl)cc1Cl)C2  Ki (Cnr2; ligand displacement, radioligand): 0.3 µM
CC(=O)N[C@@H](CCCNC(=N)N)C(=O)N[C@@H](Cc1ccc(O)cc1)C(=O)N[C@@H](CCCNC(=N)NC(=O)NCCCCN)C(=O)N[C@@H](CC(C)C)C(=O)N[C@H](CCCNC(=N)N)C(=O)N[C@@H](Cc1ccc(O)cc1)C(N)=O  Ki (NPY2R; ligand displacement, radioligand): > 5 µM
O=C(O)C1CC1C(=O)c1ccc(Cl)c(Cl)c1 (stereo not drawn)  Ki (Kynurenine 3-monooxygenase, residues 1-394 (Saccharomyces cerevisiae, UniProt P38169); enzyme activity, 3-hydroxykynurenine formation HPLC): 0.074 ± 0.014 µM
COc1c(OCCOCCOCCOCCOCCOCCOc2cccc(C(=O)C3CCN(CCc4ccc(F)cc4)CC3)c2OC)cccc1C(=O)C1CCN(CCc2ccc(F)cc2)CC1  Ki (5-hydroxytryptamine receptor 2A (HTR2A, Homo sapiens, UniProt P28223); ligand displacement, radioligand): 0.003 µM
CC[C@H](C)[C@H](NC(=O)CN)C(=O)N[C@H](C(=O)N[C@@H](CC(N)=O)C(=O)N[C@H](C(=O)N[C@@H](CC(C)C)C(=O)N[C@@H](CCC(N)=O)C(=O)N[C@@H](CCC(N)=O)C(=O)N[C@@H](Cc1ccc(O)cc1)C(=O)N[C@@H](Cc1ccc(O)cc1)C(=O)N[C@H]1CSSC[C@@H]2NC(=O)[C@H](CCCCN)NC(=O)[C@H](CCCNC(=N)N)NC(=O)CNC(=O)[C@H](CCCNC(=N)N)NC(=O)[C@H]([C@@H](C)O)NC(=O)[C@H](CO)NC(=O)[C@@H]3CSSC[C@H](NC(=O)[C@H](CCCNC(=N)N)NC(=O)CNC(=O)CNC(=O)[C@H](CCCNC(=N)N)NC(=O)[C@H](C(C)C)NC(=O)[C@H](CCC(N)=O)NC1=O)C(=O)N[C@@H](C)C(=O)N[C@@H](C(C)C)C(=O)N[C@@H](CC(C)C)C(=O)N[C@@H](CO)C(=O)N[C@@H](CSSC[C@@H](C(=O)N[C@@H](CCCNC(=N)N)C(=O)N[C@@H](CCCNC(=N)N)C(=O)N[C@@H](CCCCN)C(=O)N[C@@H](CCCCN)C(N)=O)NC2=O)C(=O)N[C@@H](CC(C)C)C(=O)N1CCC[C@H]1C(=O)N[C@@H](CCCCN)C(=O)N[C@@H](CCC(=O)O)C(=O)N[C@@H](CCC(=O)O)C(=O)N[C@@H](CCC(N)=O)C(=O)N[C@@H]([C@@H](C)CC)C(=O)NCC(=O)N[C@@H](CCCCN)C(=O)N3)[C@@H](C)O)[C@@H](C)CC  Ki (MC4R; ligand displacement in cells): 0.109 µM
CC[C@H](C)[C@H](NC(=O)[C@H](CCC(=O)O)NC(=O)[C@H](Cc1ccc(N)cc1)NC(=O)[C@@H](C)NC(=O)[C@@H](N)Cc1ccc(O)cc1)C(=O)N[C@H](C(=O)NCC(N)=O)[C@@H](C)CC  Ki (Oprk1; ligand displacement, radioligand; cell membranes): > 1 µM
CC[C@H](C)[C@H](NC(=O)[C@@H]1CSSC[C@H](NC(=O)[C@H](Cc2ccc(O)cc2)NC(=O)CNC(C)=O)C(=O)N[C@@H](CO)C(=O)N[C@@H](CCCNC(=N)N)C(=O)N[C@@H](CO)C(=O)N[C@@H](Cc2ccc(O)cc2)C(=O)N2CCC[C@H]2C(=O)N2CCC[C@H]2C(=O)N[C@@H](C(C)C)C(=O)N1)C(=O)N1CCC[C@H]1C(=O)N[C@@H](CC(=O)O)C(=O)O  Ki (PRSS1; enzyme activity, inhibitor): 0.07 µM
CC[C@H](C)[C@H](NC(=O)CN)C(=O)N[C@H](C(=O)N[C@@H](CC(N)=O)C(=O)N[C@H](C(=O)N[C@@H](CC(C)C)C(=O)N[C@@H](CCC(N)=O)C(=O)N[C@@H](CCCCN)C(=O)N[C@@H](Cc1ccc(O)cc1)C(=O)N[C@@H](Cc1ccc(O)cc1)C(=O)N[C@H]1CSSC[C@@H]2NC(=O)[C@H](CCCCN)NC(=O)[C@H](CCCNC(=N)N)NC(=O)CNC(=O)[C@H](CCCNC(=N)N)NC(=O)[C@H]([C@@H](C)O)NC(=O)[C@H](CO)NC(=O)[C@@H]3CSSC[C@H](NC(=O)[C@H](CCCNC(=N)N)NC(=O)CNC(=O)CNC(=O)[C@H](CCCNC(=N)N)NC(=O)[C@H](C(C)C)NC(=O)[C@H](CCCNC(=N)N)NC1=O)C(=O)N[C@@H](C)C(=O)N[C@@H](C(C)C)C(=O)N[C@@H](CC(C)C)C(=O)N[C@@H](CO)C(=O)N[C@@H](CSSC[C@@H](C(=O)N[C@@H](C)C(=O)N[C@@H](CCCNC(=N)N)C(=O)N[C@@H](C)C(=O)N[C@@H](CCCCN)C(N)=O)NC2=O)C(=O)N[C@@H](CC(C)C)C(=O)N1CCC[C@H]1C(=O)N[C@@H](CCCCN)C(=O)N[C@@H](CCC(=O)O)C(=O)N[C@@H](CCC(=O)O)C(=O)N[C@@H](CCC(N)=O)C(=O)N[C@@H]([C@@H](C)CC)C(=O)NCC(=O)N[C@@H](CCCCN)C(=O)N3)[C@@H](C)O)[C@@H](C)CC  Ki (MC4R; ligand displacement in cells): 0.178 µM
CC(=O)N[C@@H](CCCNC(=N)N)C(=O)N[C@@H](Cc1ccc(O)cc1)C(=O)N[C@@H](CCCNC(=N)NC(=O)NCCCCN)C(=O)N[C@@H](CC(C)C)C(=O)N[C@@H](CCCNC(=N)N)C(=O)N[C@@H](Cc1ccc(O)cc1)C(=O)O  Ki (NPY2R; ligand displacement, radioligand): > 5 µM
C[C@@H]1C(=O)O[C@H]2C1CC[C@@]1(C)[C@H](O)CC[C@@]13C[C@]2(O)OO3 (stereo partly drawn)  Ki (calmodulin-dependent phosphodiesterase 1; cAMP hydrolysis, inhibitor): 6.1 µM
CC(C)(C)OC(=O)C[C@H](NC(=O)OCc1ccccc1)C(=O)CBr  Ki (PRSS1): > 200 µM
NC(=O)Cn1c(-c2cccs2)noc1=O  Ki (Urease; enzyme activity, inhibitor): 9.69 µM
CN1/C(=C/C=C/C=C/C2=[N+](CCCCCC(=O)NCCCCCCCCN3[C@H]4[C@H](O)[C@@H](O)[C@H](O[C@@H]5OC[C@@H](O)[C@H](O)[C@H]5O)C[C@H]43)c3ccccc3C2(C)C)C(C)(C)c2ccccc21 (stereo partly drawn)  Ki (Exo-1,4-beta-xylosidase xlnD (xlnD, Emericella nidulans, UniProt Q5BAS1); covalent inhibitor; Aspergillus nidulans; pH 4.5, ambient, with: 4MU-β-D-xyloside): 168 µM
CSCC[C@H](NC=O)C(=O)N[C@@H](CCC(=O)O)C(=O)N[C@@H](Cc1ccccc1)C(=O)N[C@H](C(=O)N[C@@H](C)C(=O)N[C@@H](CCCCN)C(=O)N[C@@H](CC(C)C)C(=O)N[C@@H](Cc1ccccc1)C(=O)N[C@@H](CCCCN)C(=O)N[C@@H](Cc1ccccc1)C(=O)N[C@@H](Cc1ccccc1)C(=O)N[C@@H](CCCCN)C(=O)N[C@@H](CC(=O)O)C(=O)N[C@@H](CC(C)C)C(=O)N[C@@H](CC(C)C)C(=O)NCC(=O)N[C@@H](CCCCN)C(=O)N[C@@H](Cc1ccccc1)C(=O)N[C@@H](CC(C)C)C(=O)NCC(=O)N[C@@H](CC(N)=O)C(=O)N[C@@H](CC(N)=O)C(=O)O)C(C)C  Ki (N-formyl peptide receptor 2 (FPR2, Homo sapiens, UniProt P25090); ligand displacement, radioligand; cell membranes): 0.0133 µM
CC(C)C[C@H](NC(=O)[C@@H]1CCCN1C(=O)[C@@H](N)CCCCN)C(=O)N[C@@H](CCC(=O)O)C(=O)N[C@H](CN[C@@H](Cc1ccccc1)C(=O)N[C@@H](CCCNC(=N)N)C(=O)N[C@H](C(=O)O)C(C)C)Cc1ccccc1  Ki (Plasmepsin I (PMI, Plasmodium falciparum, UniProt Q7KQM4)): 5.5 ± 0.7 µM
Cc1cc2c(cc1Cl)-c1c(c(C(=O)NC3CCCCC3)nn1-c1ccc(Cl)cc1Cl)C2  Ki (Cnr2; ligand displacement, radioligand): 0.0247 µM
CC1=C[C@H](O/C=C2/C(=O)O[C@@H]3c4ccccc4C[C@H]23)OC1=O (racemic)  Ki (RMS3 (Lathyrus oleraceus, UniProt A0A109QYD3); cell-free assay, inhibitor): 0.102 µM and 0.1 µM
CC[C@H](C)[C@H](NC(=O)CN)C(=O)N[C@H](C(=O)N[C@@H](CC(N)=O)C(=O)N[C@H](C(=O)N[C@@H](CC(C)C)C(=O)N[C@@H](CCC(N)=O)C(=O)N[C@@H](CCC(N)=O)C(=O)N[C@@H](Cc1ccc(O)cc1)C(=O)N[C@@H](Cc1ccc(O)cc1)C(=O)N[C@H]1CSSC[C@@H]2NC(=O)[C@H](CCC(N)=O)NC(=O)[C@H](CCC(N)=O)NC(=O)CNC(=O)[C@H](CCC(N)=O)NC(=O)[C@H]([C@@H](C)O)NC(=O)[C@H](CO)NC(=O)[C@@H]3CSSC[C@H](NC(=O)[C@H](CCCNC(=N)N)NC(=O)CNC(=O)CNC(=O)[C@H](CCCNC(=N)N)NC(=O)[C@H](C(C)C)NC(=O)[C@H](CCC(N)=O)NC1=O)C(=O)N[C@@H](C)C(=O)N[C@@H](C(C)C)C(=O)N[C@@H](CC(C)C)C(=O)N[C@@H](CO)C(=O)N[C@@H](CSSC[C@@H](C(=O)N[C@@H](CCCNC(=N)N)C(=O)N[C@@H](CCCNC(=N)N)C(=O)N[C@@H](CCCCN)C(=O)N[C@@H](CCCCN)C(N)=O)NC2=O)C(=O)N[C@@H](CC(C)C)C(=O)N1CCC[C@H]1C(=O)N[C@@H](CCCCN)C(=O)N[C@@H](CCC(=O)O)C(=O)N[C@@H](CCC(=O)O)C(=O)N[C@@H](CCC(N)=O)C(=O)N[C@@H]([C@@H](C)CC)C(=O)NCC(=O)N[C@@H](CCC(N)=O)C(=O)N3)[C@@H](C)O)[C@@H](C)CC  Ki (MC4R; ligand displacement in cells): 0.923 µM
CCOC(=O)[C@](CC)(CCCSCCOCCOCCNC(=O)c1ccc(-c2c3ccc(=N)c(S(=O)(=O)O)c-3oc3c(S(=O)(=O)O)c(N)ccc23)c(C(=O)O)c1)NC(=O)c1ccc(C2CC2)c(Cc2ccc(F)cc2)n1  Ki (Cnr2; ligand displacement, radioligand; cell membranes): 0.028 µM
CC(C)C[C@H](NC(=O)[C@H](CCC(N)=O)NC(=O)[C@H](CCCCN)NC(=O)[C@H](CCCNC(=N)N)NC(=O)[C@@H]1CCCN1C(=O)[C@H](C)NC(=O)[C@@H](N)CCCCN)C(=O)N[C@@H](C)C(=O)N[C@H](C(=O)N[C@@H](CCCCN)C(=O)N[C@@H](C)C(=O)N[C@@H](C)C(=O)N[C@@H](CCCNC(=N)N)C(=O)N[C@@H](CCCCN)C(=O)N[C@@H](CO)C(=O)N[C@@H](C)C(=O)N1CCC[C@H]1C(=O)N[C@@H](C)C(=O)O)[C@@H](C)O  Ki (Procathepsin L (CTSL, Homo sapiens, UniProt P07711); enzyme activity, inhibitor, fluorescence; pH 6): 4.5 µM
CN(C)CP(C)(=O)O  Ki (Urease; enzyme activity, inhibitor, absorbance; pH 7): 3.7 µM
C[n+]1ccc(C(=O)NC2CCC3(O)C4Cc5ccc(O)c6c5C3(CC[N+]4(C)CC3CC3)C2O6)cc1 (stereo not drawn)  Ki (Oprk1; ligand displacement, radioligand; cell membranes): 0.0201 µM
CP(=O)(O)CNCc1ccccc1  Ki (Urease; enzyme activity, inhibitor, absorbance; pH 7): 571 µM
C[C@@H](O)[C@H](NC(=O)[C@H](CCCNC(=N)N)NC(=O)[C@H](CCCCN)NC(=O)[C@H](CCCCN)NC(=O)[C@@H](N)CCCNC(=N)N)C(N)=O  Ki (Furin (FURIN, Homo sapiens, UniProt P09958); enzyme activity, inhibitor): 0.75 µM

Some of these lines once more:
O=C(O)C1CC1C(=O)c1ccc(Cl)c(Cl)c1 (stereo not drawn)  Ki (Kynurenine 3-monooxygenase, residues 1-394 (Saccharomyces cerevisiae, UniProt P38169); enzyme activity, 3-hydroxykynurenine formation HPLC): 0.074 ± 0.014 µM
COc1c(OCCOCCOCCOCCOCCOCCOc2cccc(C(=O)C3CCN(CCc4ccc(F)cc4)CC3)c2OC)cccc1C(=O)C1CCN(CCc2ccc(F)cc2)CC1  Ki (5-hydroxytryptamine receptor 2A (HTR2A, Homo sapiens, UniProt P28223); ligand displacement, radioligand): 0.003 µM
CC(C)(C)OC(=O)C[C@H](NC(=O)OCc1ccccc1)C(=O)CBr  Ki (PRSS1): > 200 µM
CC(C)C[C@H](NC(=O)[C@H](CCC(N)=O)NC(=O)[C@H](CCCCN)NC(=O)[C@H](CCCNC(=N)N)NC(=O)[C@@H]1CCCN1C(=O)[C@H](C)NC(=O)[C@@H](N)CCCCN)C(=O)N[C@@H](C)C(=O)N[C@H](C(=O)N[C@@H](CCCCN)C(=O)N[C@@H](C)C(=O)N[C@@H](C)C(=O)N[C@@H](CCCNC(=N)N)C(=O)N[C@@H](CCCCN)C(=O)N[C@@H](CO)C(=O)N[C@@H](C)C(=O)N1CCC[C@H]1C(=O)N[C@@H](C)C(=O)O)[C@@H](C)O  Ki (Procathepsin L (CTSL, Homo sapiens, UniProt P07711); enzyme activity, inhibitor, fluorescence; pH 6): 4.5 µM
